# Measured values pooled from the literature.
# “And” joins repeats or separate records; there may be more than shown.
SMILES,target or system,test,system,conditions,scale,quantity,value
CN(C)N=O,HepaRG,micronucleus formation,,,,lowest effective concentration,1600 µM
O=[N+]([O-])c1ccc(-c2nn(-c3ccccc3)c3sc(NC(c4ccccc4O)P(=O)(Oc4ccccc4)Oc4ccccc4)nc23)cc1 (stereo not drawn),BNL mouse liver cells,SRB,,"100 µM, 10% fetal bovine serum",,viability,94.4%
CN1CC[C@@H](c2c(O)cc(O)c3c(=O)cc(-c4ccc(C(F)(F)F)cc4Cl)oc23)[C@@H]1CO,,measured: Dizziness,B-cell malignancies,"oral, 100 mg, intermittent dosing",,patients with adverse event,0%
COc1cc2c(Oc3ccc4[nH]c(C)cc4c3F)ccnc2cc1OCC1(N)CC1,,,paediatric refractory sarcoma patients,8 mg,,Appendicitis incidence,0%
CCC1CCCCN1CCCNC(=O)c1sc2nc(C)cc(C)c2c1-n1cccc1 (stereo not drawn),Vero-E6,CellTiter-Glo ATP,,"72 h, first round 5-point","relative to: DMSO 0%, hyamine -100%, more negative, more toxic",maximum response,-2%
CC(=O)N1CCC(C(=O)N2CCN3C(=O)c4cc(-c5ccccc5)ccc4NC(=O)C3C2)CC1 (stereo not drawn),Salmonella typhimurium,,TA1537,"500 µg/plate, together with: rat liver S9",relative to: vehicle,fold increase in revertants,1.9
CC(C)C[C@@H](NC(=O)[C@H](N)CCCCN)C(=O)N[C@H](CC(C)C)C(=O)N[C@H](Cc1ccccc1)C(N)=O,NGF-differentiated PC-12 neurons,,,"80 µM, 24 h",relative to: untreated,viability,96.5%
CC(C)(C)NCc1ccc(Nc2ccnc3cc(Cl)ccc23)cc1O,Vero-E6,CellTiter-Glo ATP,,"72 h, retest 8-point duplicates","relative to: DMSO 0%, hyamine -100%, more negative, more toxic",maximum response,-34%
CC/C(=C(\c1ccccc1)c1ccc(OCCN(C)C)cc1)c1ccccc1,human coronavirus OC43,virus-induced cell killing,MRC-5,screen,,maximum inhibition,3.81%
CC(C)C[C@@H](N)C(=O)N[C@H](CC(C)C)C(=O)N[C@H](Cc1ccccc1)C(=O)N[C@H](Cc1ccccc1)C(=O)N[C@H](C)C(N)=O,NGF-differentiated PC-12 neurons,,,"80 µM, 24 h",relative to: untreated,viability,75.8%
COc1ccc2c(Sc3ccc(Cl)cc3)c(C(=O)NCCCN3CCCCC3)[nH]c2c1,Vero-E6,CellTiter-Glo ATP,,"concentration not given, 72 h, second round 5-point","relative to: DMSO 0%, hyamine -100%, more negative, more toxic",cytotoxicity efficacy,11.5%
CC(C)C[C@@H](NC(=O)[C@H](N)CCCCN)C(=O)N1CCC[C@@H]1C(=O)N[C@H](Cc1ccccc1)C(=O)N[C@H](Cc1ccccc1)C(=O)N[C@H](C)C(N)=O,NGF-differentiated PC-12 neurons,,,"5 µM, 24 h",relative to: untreated,viability,100%
O=c1ccc2ccccc2o1,HepG2,measured: cell count,,"concentration not given, 1 h, inflammation and pH panel",,probability of response,0.05%
CC(C)C[C@H](NC(=O)[C@H](C)NC(=O)[C@@H](NC(=O)[C@H](CCCNC(=N)N)NC(=O)[C@H](CC(C)C)NC(=O)[C@H](Cc1c[nH]c2ccccc12)NC(=O)[C@@H]1CCCN1C(=O)[C@@H](N)CCCCN)C(C)C)C(=O)N[C@@H](CS)C(=O)N1CCC[C@H]1C(=O)NCC(=O)O,A549,WST-1,,"8 µM, 24 h",,viability,82.4% and 86.6% and 92.4%
CO[C@H]1C[C@@H]2CC[C@@H](C)[C@@](O)(O2)C(=O)C(=O)N2CCCC[C@H]2C(=O)O[C@H]([C@H](C)C[C@@H]2CC[C@@H](OC(=O)NCCOCCOCCOCCOCCOCCOCCOCCOCCC(=O)N3CCc4cc(Cn5nc(-c6ccc7oc(N)nc7c6)c6c(N)ncnc65)ccc4C3)[C@H](OC)C2)C[C@@H](O)[C@H](C)/C=C(\C)[C@@H](O)[C@@H](OC)C(=O)[C@H](C)C[C@H](C)/C=C/C=C/C=C/1C,,,patients with advanced solid tumours,"intravenous, 12 mg weekly, any grade",,AE leading to discontinuation,25%
O=S(=O)(c1ccc(-c2ccc3nccc(Nc4cccnc4)c3c2)cc1)N1CCOCC1,NIH 3T3,"cytotoxicity, PrestoBlue",,"96 h, 2% FBS",,TC50,> 20 µM
C[C@H]1CCC/C=C/[C@@H]2C[C@H](O)C[C@H]2[C@H](O)/C=C/C(=O)O1,differentiated THP-1,,,72 h,relative to: THP-1 CC50 over EC50,selectivity index,1
CC(C)C[C@@H](NC(=O)[C@H](N)CCCCN)C(=O)N[C@H](CC(C)C)C(=O)N[C@H](Cc1ccccc1)C(=O)N[C@H](Cc1ccccc1)C(N)=O,NGF-differentiated PC-12 neurons,,,"10 µM, 24 h",relative to: untreated,viability,99.8%
CCCN1CCN(CCCNC(=O)c2cc3c(Cl)nc4ccccc4c3s2)CC1,Vero-E6,CellTiter-Glo ATP,,"72 h, second round 5-point","relative to: DMSO 0%, hyamine -100%, more negative, more toxic",maximum response,-15.9%
CC(C)C[C@@H](N)C(=O)N[C@H](CC(C)C)C(=O)N[C@H](Cc1ccccc1)C(=O)N[C@H](Cc1ccccc1)C(N)=O,NGF-differentiated PC-12 neurons,,,"5 µM, 24 h",relative to: untreated,viability,65.3%
COc1ccc(N2CCN(CCCNC(=O)c3cc(Nc4ccc(OC)cc4OC)nc4ccccc34)CC2)cc1,Vero-E6,CellTiter-Glo ATP,,"concentration not given, 72 h, retest 8-point duplicates","relative to: DMSO 0%, hyamine -100%, more negative, more toxic",cytotoxicity efficacy,-22.6%
CC(C)C[C@@H](N)C(=O)N1CCC[C@@H]1C(=O)N[C@H](Cc1ccccc1)C(=O)N[C@H](Cc1ccccc1)C(=O)N[C@H](C)C(=O)N[C@H](CCC(=O)O)C(N)=O,NGF-differentiated PC-12 neurons,,,"20 µM, 24 h",relative to: untreated,viability,99%
Cc1ccc(-c2c(-c3nn(C)c4ncnc(N5CC[C@H](N6CCCCC6)C5)c34)cnn2C)cc1,human coronavirus OC43,virus-induced cell killing,MRC-5,screen,,maximum inhibition,17.3%
Cc1ccc(C)c(Nc2cc(C(=O)NCCCN(C)C3CCCCC3)c3ccccc3n2)c1,Vero-E6,CellTiter-Glo ATP,,"72 h, retest 8-point duplicates","relative to: DMSO 0%, hyamine -100%, more negative, more toxic",maximum response,-45.1%
